Measured values gathered from unrelated publications.
“And” joins repeats or separate records; there may be more than shown. ± marks the error that the study gave. Values after ≈ are worked out from the molar mass of the structure shown.

N=C(N)NCCC[C@@H](NC(=O)[C@H](N)Cc1c[nH]c2ccccc12)C(=O)N[C@H](CCCCN)C(=O)N[C@H](Cc1c[nH]c2ccccc12)C(=O)N[C@H](CCCNC(=N)N)C(=O)N[C@H](CCCCN)C(=O)N[C@H](Cc1c[nH]c2ccccc12)C(=O)N[C@H](CCCNC(=N)N)C(=O)N[C@H](CCCCN)C(=O)N[C@H](Cc1c[nH]c2ccccc12)C(=O)N[C@H](CCCNC(=N)N)C(=O)N[C@H](CCCCN)C(N)=O gave a survival of 100% (mouse; intraperitoneal, 20 mg/kg single dose, day 6).
CCCC[C@H]1C(=O)N(C)[C@@H](CCCC)C(=O)N[C@@H](CCCNC(=O)CN2CCN(CC(=O)O)CCN(CC(=O)O)CCN(CC(=O)O)CC2)C(=O)N[C@H](C(=O)NCC(N)=O)CSCC(=O)N[C@@H](Cc2ccc(O)cc2)C(=O)N(C)[C@@H](C)C(=O)N[C@@H](CC(N)=O)C(=O)N2CCC[C@H]2C(=O)N[C@@H](Cc2c[nH]cn2)C(=O)N[C@@H](CC(C)C)C(=O)N(C)CC(=O)N[C@@H](Cc2c[nH]c3ccccc23)C(=O)N[C@@H](CO)C(=O)N[C@@H](Cc2c[nH]c3ccccc23)C(=O)N1C [gallium-68 labelled] has a tissue uptake of 12.9 ± 0.42 %ID/g (NOD/SCID mice with CHO-hPD-L1 xenograft, blood; 10 min post injection).
The faecal excretion of COc1ccc([C@@H]2CC(=O)c3c(O)cc(O[C@@H]4O[C@H](CO)[C@@H](O)[C@H](O)[C@H]4O[C@@H]4O[C@@H](C)[C@H](O)[C@@H](O)[C@H]4O)cc3O2)cc1O is reported as 581 ± 271 ng (Sprague-Dawley rat, male, lean, faeces; oral, 100 mg/kg, 0-12 h).
For C=CC(=O)Nc1cccc(Cn2ncc3cnc(Nc4cnn(CCOC)c4)nc32)c1, the serum ALT was 46 ± 16.3 U/L (Sprague-Dawley rat male, serum; oral, 180 mg/kg, day 28, 28-day subacute toxicity).
C=Cc1c(C)c2cc3nc(c(CC(=O)[O-])c4[n-]c(cc5nc(cc1[n-]2)C(C)=C5CC)c(C)c4C(=O)[O-])C(CCC(=O)[O-])C3C.[Cu+2].[Na+].[Na+].[Na+] (stereo not drawn) gave a serum albumin of 1.08 ± 0.08 g/dL (Wistar rat, female; oral, 500 mg/kg daily, 28 days).
For O=C1NC2(CC2)COc2ncc(F)cc2[C@H]2COCCN2c2ccn3ncc1c3n2, the creatinine was 30.4 ± 2.3 µmol/L (Sprague-Dawley rat, female, serum; oral, 10 mg/kg/day, 4 weeks daily, end of recovery period).
The tissue uptake of CN1Cc2cc(Cl)ccc2-n2c(nnc2C2CCN(c3cccc([18F])n3)CC2)C1 is reported as 3.76 ± 0.54 %ID/g (C57BL/6 mouse male, thymus; intravenous, 3.7 MBq, 5 min).
CN[C@H](CC(C)C)C(=O)N[C@H]1C(=O)N[C@@H](CC(N)=O)C(=O)N[C@H]2C(=N)N[C@H]3C(=O)N[C@H](C(=O)N[C@H](C(=O)NCCCNC(=N)N)c4cc(O)cc(O)c4-c4cc3ccc4O)[C@H](O)c3ccc(c(Cl)c3)Oc3cc2cc(c3O[C@@H]2O[C@H](CO)[C@@H](O)[C@H](O)[C@H]2O[C@H]2C[C@](C)(NCc3ccc(-c4ccc(Cl)cc4)cc3)[C@H](O)[C@H](C)O2)Oc2ccc(cc2Cl)[C@H]1O gave a clearance of 0.55 mL/min/kg (mouse; intravenous, 25 mg/kg).
CCc1nn(C)c2nc(-c3ccc(C(=O)O)cc3)nc(NCc3ccccc3)c12 has a concentration of 0.672 µg/mL (male CD-1 mouse, plasma; oral, 10 mg/kg, 2 h).
With CSCC[C@H](NC(=O)CNC(=O)[C@H](CCCCN)NC(=O)[C@H](CC(C)C)NC(=O)[C@@H]1CCCN1C(=O)[C@H](CO)NC(=O)[C@H](Cc1c[nH]cn1)NC(=O)[C@H](Cc1c[nH]c2ccccc12)NC(=O)[C@H](CCCNC(=N)N)NC(=O)[C@H](CC(C)C)NC(=O)[C@H](CCCNC(=N)N)NC(=O)[C@H](Cc1c[nH]c2ccccc12)NC(=O)[C@H](CS)NC(=O)CCCCCNC(=O)CN1CCN(CC(=O)O)CCN(CC(=O)O)CCN(CC(=O)O)CC1)C(=O)O [copper-64 labelled] the tissue uptake was 3.29 %ID/g (male C57BL/6J mice, B16-F10 tumour, small intestine; intravenous, 1.85 MBq, 18 h).
CC(=O)NCCCC[C@@H]1NC(=O)[C@H](Cc2c[nH]c3c(C)cccc23)NC(=O)[C@H]([C@@H](C)O)NC(=O)[C@H](CC(N)=O)NC(=O)[C@@H](NC(C)=O)C(C)(C)SSC(C)(C)[C@@H](C(=O)N[C@@H](Cc2ccc(OCCN)cc2)C(=O)N[C@@H](Cc2ccc3ccccc3c2)C(=O)NC2(C(=O)N[C@@H](CCC(=O)O)C(=O)N[C@@H](CC(N)=O)C(=O)N[C@@H](Cc3cccnc3)C(=O)N(C)CC(N)=O)CCOCC2)NC1=O: “blood to plasma ratio” 0.49 ± 0.04 (human, blood; 0.0013 µM, 2 h).
With C=Cc1c(C)c2cc3nc(c(CC(=O)O)c4[nH]c(cc5nc(cc1[nH]2)C(C)=C5CC)c(C)c4C(=O)O)[C@@H](CCC(=O)NCCCC[C@H](NC(C)=O)C(=O)N[C@@H](Cc1ccccc1)C(=O)N[C@@H](Cc1ccccc1)C(=O)N[C@H](C(=O)N[C@@H](CC(C)C)C(=O)N[C@@H](CCCCN)C(=O)N[C@@H](CO)C(=O)NCC(=O)N[C@@H](CCC(N)=O)C(=O)N[C@@H](Cc1ccc(O)cc1)C(=O)N[C@@H](C)C(=O)N[C@@H](CO)C(=O)N[C@@H](Cc1ccc(O)cc1)C(=O)N[C@@H](Cc1c[nH]cn1)C(=O)N[C@@H](CS)C(=O)N[C@@H](Cc1c[nH]c2ccccc12)C(=O)N[C@@H](CS)C(=O)N[C@@H](Cc1c[nH]c2ccccc12)C(=O)N[C@@H](CCCNC(=N)N)C(=O)N[C@@H](CC(=O)O)C(=O)N1CCC[C@H]1C(=O)NCC(=O)N[C@@H](CCCNC(=N)N)C(=O)N[C@@H](CO)C(=O)NCC(=O)NCC(=O)N[C@@H](CO)C(=O)N[C@@H](CCCCN)C(N)=O)C(C)C)[C@@H]3C the blood concentration was 171 µg/mL and 175 µg/mL (mouse, blood; 0 h).
The thermodynamic solubility of CN1C(=O)[C@@H]2NC(=O)[C@@H]3NC(=O)[C@@H](c4ccc(O)cc4)NC(=O)[C@H](NC(=O)C(NCc4cccc(O)c4O)c4ccc(O)cc4)Cc4c[nH]c5cc(ccc45)-c4cc3cc(c4O)Oc3ccc(cc3)C[C@H]1C(=O)N[C@@H](C(=O)O)c1ccc(O)c(c1)Oc1ccc2cc1 (stereo partly drawn) is reported as 16.4 µg/mL (≈ 13.2 µM) (saline; 24 h, 25 °C).
CC1(C)C(=O)N(c2ccc(C#N)c(C(F)(F)F)c2)C(=S)N1c1ccc(C(N)=O)c(F)c1 gave a median Tmax of 204 h (healthy male humans, plasma; oral, 160 mg, fasting, soft capsules).
N=C(N)NCCC[C@H](NC(=O)[C@H](CCCNC(=N)N)NC(=O)[C@H](CCCNC(=N)N)NC(=O)[C@H](CCC(N)=O)NC(=O)[C@H](CCCNC(=N)N)NC(=O)[C@H](CCCNC(=N)N)NC(=O)[C@H](CCCCN)NC(=O)[C@H](CCCCN)NC(=O)[C@H](CCCNC(=N)N)NC(=O)CNC(=O)[C@H](Cc1ccc(O)cc1)NC(=O)[C@H](Cc1ccccc1)NC(=O)[C@H](Cc1ccccc1)NC(=O)[C@H](Cc1ccccc1)NC(=O)OCC1c2ccccc2-c2ccccc21)C(=O)O has a health score of 5 (C57BL/6 mice; intraperitoneal, 20 mg/kg, 48 h; direction not given).
With CCCCCCCCCCCCCCCC(=O)N[C@@H](CCC(=O)NCCOCCOCCC(=O)NCCOCCOCCC(=O)NCCCC[C@H](NC(=O)[C@H](CC(=O)O)NC(=O)[C@H](CC(C)C)NC(=O)[C@H](Cc1ccc(O)cc1)NC(=O)[C@H](CCCCN)NC(=O)[C@H](CO)NC(=O)[C@H](Cc1ccc(O)cc1)NC(=O)[C@H](CC(=O)O)NC(=O)[C@H](CO)NC(=O)[C@@H](NC(=O)[C@H](Cc1ccccc1)NC(=O)[C@@H](NC(=O)CNC(=O)[C@H](CCC(N)=O)NC(=O)[C@@H](CO)NC(=O)[C@@H](N)Cc1c[nH]cn1)[C@@H](C)O)[C@@H](C)O)C(=O)N[C@@H](CCCNC(=N)N)C(=O)N[C@@H](CCCNC(=N)N)C(=O)N[C@@H](C)C(=O)N[C@@H](CCC(N)=O)C(=O)N[C@@H](CC(=O)O)C(=O)N[C@@H](Cc1ccccc1)C(=O)N[C@H](C(=O)N[C@@H](CCC(N)=O)C(=O)N[C@@H](Cc1c[nH]c2ccccc12)C(=O)N[C@@H](CC(C)C)C(=O)N[C@@H](CC(C)C)C(=O)N[C@@H](CC(N)=O)C(=O)N[C@H](C(=O)NCC(=O)NCC(=O)N1CCC[C@H]1C(=O)N[C@@H](CO)C(=O)N[C@@H](CO)C(=O)NCC(=O)N[C@@H](C)C(=O)N1CCC[C@H]1C(=O)N1CCC[C@H]1C(=O)N1CCC[C@H]1C(=O)N[C@@H](CO)C(N)=O)[C@@H](C)O)C(C)C)C(=O)O the total bilirubin was 5.4 ± 1.1 µmol/L (rhesus monkey, male; subcutaneous, 60 µg/kg once daily, 28 days).
With CC[C@H](C)[C@H](NC(=O)[C@H](CCCCN)NC(=O)CNC(=O)[C@H](CC(C)C)NC(=O)[C@H](Cc1ccccc1)NC(=O)[C@H](CCCCN)NC(=O)[C@H](CO)NC(=O)[C@H](Cc1ccccc1)NC(=O)[C@H](Cc1c[nH]c2ccccc12)NC(=O)[C@H](CCC(N)=O)NC(=O)[C@@H](NC(=O)[C@H](Cc1ccccc1)NC(=O)CCCCCNC(=O)CN1CCN(CC(=O)O)CCN(CC(=O)O)CCN(CC(=O)O)CC1)C(C)C)C(=O)N[C@@H](CCC(=O)O)C(=O)N1CCC[C@H]1C(=O)N[C@@H](CC(=O)O)C(=O)N[C@H](C(=O)N[C@@H](CO)C(=O)N[C@@H](CCC(N)=O)C(=O)N[C@H](C(=O)N[C@@H](CCC(N)=O)C(=O)N[C@@H](CC(=O)O)C(=O)N1CCC[C@H]1C(=O)N[C@@H](CC(N)=O)C(=O)N[C@@H](CC(=O)O)C(=O)N[C@@H](CCC(N)=O)C(=O)N[C@@H](Cc1ccc(O)cc1)C(=O)N[C@@H](CCC(=O)O)C(=O)N1CCC[C@H]1C(=O)N[C@@H](Cc1ccccc1)C(=O)O)C(C)C)C(C)C [copper-64 labelled] the tissue uptake was 3.96 ± 0.6 %ID/g (BALB/c mice, male, CT26 tumour-bearing, small intestine; 2 h, vehicle-treated).
For CC(C)[C@@H]1NC(=O)CNC(=O)[C@H](CC(N)=O)NC(=O)[C@H](CCCNC(=N)N)NC(=O)[C@H](Cc2ccc(O)cc2)NC(=O)[C@H](C(C)C)NC(=O)[C@@H](NC(=O)[C@@H](NC(=O)[C@H](CC(N)=O)NC(=O)[C@H](Cc2c[nH]c3ccccc23)NC(=O)[C@H](C)NC(=O)[C@H](Cc2ccccc2)NC(=O)CNC(=O)[C@H](CCCCN)NC(=O)[C@H](Cc2ccccc2)NC(=O)[C@H](Cc2ccccc2)NC(=O)[C@H](CCCCN)NC(=O)OCC2c3ccccc3-c3ccccc32)C(C)C)CSSC[C@@H](C(=O)N[C@@H](Cc2c[nH]cn2)C(=O)N[C@@H](CCCNC(=N)N)C(=O)N[C@@H](CCCNC(=N)N)C(=O)N[C@@H](C)C(=O)N[C@@H](CC(N)=O)C(N)=O)NC(=O)[C@H](C(C)C)NC(=O)[C@H](CCCNC(=N)N)NC1=O, the total protein was 53.9 ± 1.3 g/L (ICR mice, serum; intraductal mammary, 5 mg/kg, day 5).

Some of these lines once more:
C=Cc1c(C)c2cc3nc(c(CC(=O)[O-])c4[n-]c(cc5nc(cc1[n-]2)C(C)=C5CC)c(C)c4C(=O)[O-])C(CCC(=O)[O-])C3C.[Cu+2].[Na+].[Na+].[Na+] (stereo not drawn) gave a serum albumin of 1.08 ± 0.08 g/dL (Wistar rat, female; oral, 500 mg/kg daily, 28 days).
